Results from different studies.
Compare with care: the assays were run in different laboratories.

Structure (SMILES)	organism	assay	test system	setting	MIC
CC(C)=CCc1cc([C@@H]2CC(=O)c3c(O)cc(O)c(CC=C(C)C)c3O2)cc(CC=C(C)C)c1O	Salmonella enterica serovar Typhi		DMST 22842	up to 128 µg/mL	inactive
Cc1ccc(-c2nc3ccc(C)cn3c2CC(=O)NCc2ccc(N(C)C)cc2)cc1	Mycobacterium tuberculosis variant bovis BCG	microbial growth	BCG	6 days	24 µM
CC(C)=CCc1cc([C@@H]2CC(=O)c3ccc(O)c(CC=C(C)C)c3O2)c(O)c(CC=C(C)C)c1O	Salmonella enterica serovar Typhi		DMST 22842	up to 128 µg/mL	inactive
O=C(NC12CC3CC(CC(C3)C1)C2)c1cc2cc(Cl)ccc2[nH]1	Moraxella catarrhalis	microbial growth, broth dilution	1502		> 64 µM
N=C(N)NCCC[C@@H]1NC(=O)[C@H](CCCNC(=N)N)NC(=O)[C@H](CCCNC(=N)N)NC(=O)[C@H](CCCNC(=N)N)NC(=O)[C@H](Cc2c[nH]c3ccccc23)NC(=O)[C@H](CCCNC(=N)N)NC(=O)[C@H](CCCNC(=N)N)NC(=O)[C@@H](N)CCCn2cc(nn2)C[C@@H](C(N)=O)NC1=O	Salmonella enterica serovar Paratyphi B			24 h, 37 °C	15.6 µg/mL
CCc1ccn2c(C(=O)NCc3ccc(C)cc3)c(C)nc2c1	Mycobacterium tuberculosis variant bovis BCG	microbial growth	BCG	6 days	0.5 µM
CCc1ccc([C@@H]2C[C@H](C(F)(F)F)n3ncc(C(=O)NCc4ccc(OC)cc4)c3N2)cc1	Moraxella catarrhalis	microbial growth, broth dilution	1502		8 µM
CC[C@H](C)[C@@H]1NC(=O)[C@H](CC(C)C)NC(=O)[C@@H](NC(=O)[C@H](CO)NC(=O)[C@H](CCCNC(=N)N)NC(=O)[C@@H](N)CO)CSSC[C@H](NC(=O)[C@H](CO)NC(=O)[C@H](CCCNC(=N)N)NC(=O)[C@@H](N)CO)C(=O)N[C@@H](CC(C)C)C(=O)N[C@@H]([C@@H](C)CC)C(=O)N[C@@H](C(C)C)C(=O)N[C@H](C(=O)N[C@@H](CCC(N)=O)C(=O)N[C@@H](CCCNC(=N)N)C(=O)N[C@@H](CC(C)C)C(=O)N[C@@H](Cc2ccccc2)C(N)=O)CSSC[C@@H](C(=O)N[C@@H](CCC(N)=O)C(=O)N[C@@H](CCCNC(=N)N)C(=O)N[C@@H](CC(C)C)C(=O)N[C@@H](Cc2ccccc2)C(N)=O)NC(=O)[C@H](C(C)C)NC1=O	Candida parapsilosis	broth microdilution	ATCC 22019		39 µg/mL
c1cc2c(s1)CCOC21CCN(Cc2ccc3c(c2)OCCO3)CC1	Moraxella catarrhalis	microbial growth, broth dilution	1502		32 µM
CC[C@H](C)[C@H](NC(=O)[C@@H](NC(=O)[C@H](CCCCN)NC(=O)[C@H](CC(=O)O)NC(=O)[C@H](CCCCN)NC(=O)[C@H](Cc1ccccc1)NC(=O)[C@H](Cc1ccccc1)NC(=O)[C@H](CO)NC(=O)[C@H](CCCCN)NC(=O)[C@H](CCSC)NC(=O)[C@H](CCCCN)NC(=O)[C@H](CCCCN)NC(=O)[C@H](Cc1c[nH]c2ccccc12)NC(=O)[C@@H](N)Cc1ccccc1)C(C)C)C(=O)N1CCC[C@H]1C(=O)N[C@@H](CCCCN)C(=O)N[C@H](C(=O)N[C@@H](CCC(N)=O)C(=O)N[C@@H](CCC(N)=O)C(=O)N[C@@H](C)C(=O)N[C@@H](Cc1ccc(O)cc1)C(=O)N[C@@H](CO)C(=O)N[C@@H](CC(C)C)C(=O)N[C@@H](Cc1ccc(O)cc1)C(=O)N[C@@H](CC(N)=O)C(=O)N[C@@H](CCCCN)C(=O)N[C@@H](CC(C)C)C(=O)N[C@@H](CCC(N)=O)C(=O)N[C@@H](Cc1c[nH]cn1)C(=O)N[C@@H](CCCCN)C(=O)N[C@@H](CC(C)C)C(N)=O)C(C)C	Mycolicibacterium smegmatis	ATP luminescence	ATCC 607	48 h	3.12 µM
Cc1ccc2nc(C)c(C(=O)NCc3ccccc3)n2c1	Mycobacterium tuberculosis variant bovis BCG	microbial growth	BCG	6 days	1 µM
N=C(N)NCCC[C@@H]1NC(=O)[C@H](CCCNC(=N)N)NC(=O)[C@H](CCCNC(=N)N)NC(=O)[C@H](CCCNC(=N)N)NC(=O)[C@H](Cc2c[nH]c3ccccc23)NC(=O)[C@H](CCCNC(=N)N)NC(=O)[C@H](CCCNC(=N)N)NC(=O)[C@@H](N)CCn2cc(nn2)C[C@@H](C(N)=O)NC1=O	Salmonella enterica serovar Paratyphi B			24 h, 37 °C	15.6 µg/mL

Repeated from above:
Structure (SMILES)	organism	assay	test system	setting	MIC
CCc1ccn2c(C(=O)NCc3ccc(C)cc3)c(C)nc2c1	Mycobacterium tuberculosis variant bovis BCG	microbial growth	BCG	6 days	0.5 µM
Cc1ccc2nc(C)c(C(=O)NCc3ccccc3)n2c1	Mycobacterium tuberculosis variant bovis BCG	microbial growth	BCG	6 days	1 µM
